Results from different studies.

| SMILES | test | test system | setting | quantity | result |
| --- | --- | --- | --- | --- | --- |
| O=C(Nc1cnn2ccc(N3CCC[C@@H]3c3cc(F)ccc3F)nc12)N1CC[C@H](O)C1 | – | porcine brain polar lipids | 10 µM, pH 7.4, 0.2% DMSO | unbound fraction in brain | 0.465 |
| COc1ccc2c(c1)CN(C(=O)CCN1CCC(Cc3ccccc3)CC1)CC[S@@+]2[O-] | – | healthy male volunteers, plasma | intravenous, 0.6 mg/kg | unbound Cmax | 600 nM |
| C#Cc1cccc(Nc2ncnc3cc(OCCOC)c(OCCOC)cc23)c1 | – | brain | 100 mg/kg, 2 h | unbound brain concentration | 128 ng/g |
| N=C(CC(O)c1cc2c(F)cc(F)cc2c2cc(C(F)(F)F)ccc12)Nc1ccc(F)c(F)c1 (stereo not drawn) | – | pooled human liver microsomes | 1 µM, pH 7.4 | unbound intrinsic clearance | 480 µL/min/mg |
| N#C[C@@]1(c2ccc3c(N)ncnn23)O[C@H](CO)[C@@H](O)[C@H]1O | – | mouse plasma | 1 to 100 µM, mean over concentrations | unbound fraction | 0.925 |
| CCO[C@H]1CCN(Cc2c(OC)cc(C)c3[nH]ccc23)[C@H](c2ccc(C(=O)O)cc2)C1 | – | healthy controls | oral, 200 mg, geometric mean | unbound AUC(0-12) | 3130 ng·h/mL |
| O=C1N[C@H](c2cncc(C#Cc3ccccc3)c2)[C@@H](c2ccccc2Cl)O1 | – | rat plasma | – | unbound fraction | < 0.01 |
| O=C1CC[C@H](N2Cc3cc(N4CCN(CC5CCN(c6ccc([C@@H]7c8ccc(O)cc8CC[C@@H]7c7ccccc7)cc6)CC5)CC4)ccc3C2=O)C(=O)N1 | rapid equilibrium dialysis | human blood | 2.5 µM, 6 h | unbound fraction in blood | 0.052 |
| Cc1cc(C)c(CNC(=O)c2cc(Cl)c3c(c2C)O[C@@](C)([C@H]2CC[C@H](N(C)C)CC2)O3)c(=O)[nH]1 | ultracentrifugation | glycoprotein, alpha-1-acid, 0.1% | 10000 ng/mL | unbound fraction | 0.44 |

A few entries again:
| SMILES | test | test system | setting | quantity | result |
| --- | --- | --- | --- | --- | --- |
| N=C(CC(O)c1cc2c(F)cc(F)cc2c2cc(C(F)(F)F)ccc12)Nc1ccc(F)c(F)c1 (stereo not drawn) | – | pooled human liver microsomes | 1 µM, pH 7.4 | unbound intrinsic clearance | 480 µL/min/mg |
